Published values gathered from unrelated publications.
Parts stem from different laboratories: compare values within a part only.

Study 1
Target: RING finger protein unkempt homolog, zinc fingers 1-6, SBP tag (UNK, Homo sapiens, UniProt Q9C0B0, residues 30-357)
UniProt Q9C0B0, sequence (30-357, looked up): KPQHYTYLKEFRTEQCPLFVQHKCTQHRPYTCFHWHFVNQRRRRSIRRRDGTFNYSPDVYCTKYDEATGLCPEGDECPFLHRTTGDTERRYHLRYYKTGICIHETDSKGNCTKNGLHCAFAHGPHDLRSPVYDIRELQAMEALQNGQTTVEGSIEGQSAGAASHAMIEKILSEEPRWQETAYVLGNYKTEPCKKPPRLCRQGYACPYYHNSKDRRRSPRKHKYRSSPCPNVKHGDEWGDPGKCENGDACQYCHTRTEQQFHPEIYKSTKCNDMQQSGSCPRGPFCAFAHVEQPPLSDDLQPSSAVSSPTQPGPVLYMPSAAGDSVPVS
Method: RNA Bind-n-Seq
Molecule type: RNA
Medium: in vitro
Concentration: 100 nM
Notes: RNA with constant flanks, vertebrate orthologous sites, ends assumed
Relative to: input RNA pool
Direction: higher = stronger binding
| Oligonucleotide | bound/input enrichment [ratio] |
| --- | --- |
| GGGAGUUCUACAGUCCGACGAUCAAGUAGUUUUAAGCUUGUUUGCACAGUUCUUUUUUCCAUUGGAGAUGGAAUCCAUUGCCUUAGGUCUUUUUAAAUAGUGUAUUGUUAUUGUUGGGGCUGCCUCUAUGCUUGAAAACCAGUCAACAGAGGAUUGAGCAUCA | 2.39 |
| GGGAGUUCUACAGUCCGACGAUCCAAAAAUGAACACCUAAAGGAAUUUUUUUUUCAUUUUUAAUUUUUCCCCUUAGACACAUUUAGACAUCCUUUUUUUCCAGGCAGAUCAUUCAGAAUGUGCGAGUGUGUGUGCACAUGUUACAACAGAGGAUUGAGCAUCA | 1.3 |
| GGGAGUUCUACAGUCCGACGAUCUCAGUCCCCUGGGCGGACGGAUUUUUUUUUUAGUGUCUUGAAAUUUAAACUCUGUGCUUGUAGGAGACUGUAACCUUUUUGUCUUUUUUUUUUUAAACAAAAACCUCCACCUCCAGUGGCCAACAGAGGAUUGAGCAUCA | 1.23 |
| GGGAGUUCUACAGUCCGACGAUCCACGUCUGGUGAUAUUUGGCCUGGCCUCUCAGCUUAUGAUAAUAGUCCCAGAUCACCCCAUAGUCCCUCACCAAUCGCCACGCCACCUAGUCAGAGUUCAUCGUGCUCUGAUGCCCCCAUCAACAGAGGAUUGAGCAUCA | 0.979 |
| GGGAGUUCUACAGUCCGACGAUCGAAGAGCUGAGUAGAGUAAGGCUGCGUUUACUUAGAGCGUUUUUCCUUGUUUUUAGUUUGCUAGGGGUUGGGUGGGUUGUGGCGCACACCUUCUCUGAGGCAGGAGCUGUAGUGAUACCACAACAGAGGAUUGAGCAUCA | 3.7 |
| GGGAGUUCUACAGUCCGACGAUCCACAUCUGGUGAUAUUUGGCCUGGUCUUUCAGCUUAUGAUAAUAGUCCCAGGUCGCCCCAUAGUCCCUCACCGAUUGCCACACCACCCAGUCAGAGUUCAUCUUGCUCUGAUGCCCCUAUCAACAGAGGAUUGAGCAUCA | 0.444 |
| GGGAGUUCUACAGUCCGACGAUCAGAAGUUUAACCAGGAUUGAUCAUAAUUUCUGAGUUCUCACUGUAUUUUCAAAAGAGGAUUAGAUAGAUGAUCUUUUUUAAAAUAAAGUUCACAUUUUAUAUUUGAAUUAUUGGCUUUUUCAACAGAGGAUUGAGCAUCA | 0.248 |
| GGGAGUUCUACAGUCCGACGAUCGGCGUCAGGUGGGGGGAAUCCCAUGCCCUAGCCUUGCCUCCCUGCCCUGCCACCCGCUCCUAGUUAUUUUUUUUUAACCACCAUGUGAUUGAGGUCGGCGCUGUCUCCCCCGACCCGCUCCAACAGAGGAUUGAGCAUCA | 1.74 |
| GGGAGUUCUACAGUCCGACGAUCAUAAGAACUCUUGCAUUCUUAGAUGUUAUAAAAAAUAUGUAUCUGAACUGUAAGAGUUAUUAGUAAACAGUUUUUUUUUUUAAAGCACUUGUUUUGGGUACAAGGCUUUUCUGAAAUUUUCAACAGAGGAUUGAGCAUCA | 0.539 |
| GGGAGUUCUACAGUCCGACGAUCUACUAGUGUCACACCAGCAUACUCACUGCUCCUUUGUACACAGCUUCCGAUGAUCAGUCUAGUUGUAUUUUUUAAUUUAAACUAUGAAAUACUGCUUUUCCCAAGACUUUGAAAAAGAUACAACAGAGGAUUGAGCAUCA | 0.782 |
| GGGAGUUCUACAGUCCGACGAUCGCAUGCACAUGCCGCUGUCACCAAAAGCAACUACCGUCUUCAAAACCUCCAAUAGCCUUCUUAGGAUUCUCUCCCUCUUUCCCUUCUGUUCCCCCGAUGCUUUAAAUGAUUAGAAGUCCUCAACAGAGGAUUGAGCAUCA | 1.5 |

Study 2
Target: Sal-like protein 4, full length isoform B (SALL4, Homo sapiens, UniProt Q9UJQ4-2, residues 1-616)
Method: universal PBM
Molecule type: double-stranded DNA, one strand shown
Medium: in vitro
Concentration: not given
Notes: 8-mer, flanks averaged, mean of replicates
Direction: higher = stronger binding
| Oligonucleotide | E-score |
| --- | --- |
| ACTTAGCC | -0.12 |
| GCAGGCAA | -0.057 |
| GACCCAAA | 0.0326 |
| ATGTACTG | 0.113 |
| CGGGCGAG | -0.292 |
| AAGTGGTC | -0.0669 |
| GGTCACTA | -0.0239 |
| AGTGTTAA | 0.248 |
| TGTGAAAA | 0.195 |
| CACTACGG | -0.243 |
| ACGCTGCT | -0.0942 |
| GGCCCTTA | -0.131 |
| AATGTTCT | 0.123 |
| GCTATCGA | -0.0727 |
| CCCCTCTC | -0.224 |
| AAACCTGA | -0.0423 |
| AGTAAAAG | 0.205 |
| CCAAAATA | 0.253 |
| AATCTTGG | -0.0643 |
| CCAGCTCA | -0.114 |
| AGCGCCGA | -0.199 |
| ACGTCAGA | -0.0194 |
| TCCACAGA | 0.008 |
| GCCGCATA | 0.0863 |
| CCATTCAA | 0.134 |

Study 3
Target: Protein C-ets-1 (ETS1, Homo sapiens, UniProt P14921, residues 1-441, K379A, full length assumed)
UniProt P14921, sequence (whole entry, unmodified, looked up): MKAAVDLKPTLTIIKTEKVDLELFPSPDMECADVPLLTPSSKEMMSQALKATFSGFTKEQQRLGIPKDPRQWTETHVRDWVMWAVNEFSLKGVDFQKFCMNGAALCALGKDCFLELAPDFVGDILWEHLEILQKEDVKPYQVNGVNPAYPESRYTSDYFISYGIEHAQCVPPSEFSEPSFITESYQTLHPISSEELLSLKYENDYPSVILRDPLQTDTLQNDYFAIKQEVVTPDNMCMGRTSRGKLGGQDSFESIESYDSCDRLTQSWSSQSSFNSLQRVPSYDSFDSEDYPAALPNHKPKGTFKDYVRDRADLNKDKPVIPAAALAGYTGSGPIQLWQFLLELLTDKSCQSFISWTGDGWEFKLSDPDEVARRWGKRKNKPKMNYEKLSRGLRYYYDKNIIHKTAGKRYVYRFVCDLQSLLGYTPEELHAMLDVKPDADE
Method: protein-binding microarray
Molecule type: double-stranded DNA, one strand shown
Medium: in vitro
Concentration: not given
Notes: k-mer, scored over probes, only values ≥0.25
Direction: higher = stronger binding
| Oligonucleotide | E-score |
| --- | --- |
| GCCGACAC | 0.258 |
| GTGTACAA | 0.269 |
| CCGACAGG | 0.322 |
| GGTTGTAC | 0.251 |
| CCTGTGTA | 0.265 |
| AATAACCG | 0.262 |
| TAATACAA | 0.284 |
| ACATCGTA | 0.298 |
| CCGGCGCA | 0.255 |
| CCGGAAGG | 0.356 |
| ATCTCCGG | 0.279 |
| AATTTTCC | 0.281 |
| CATATCCG | 0.264 |
| ACAACACT | 0.252 |
| GGGAATAA | 0.278 |
| CCGGGTGC | 0.25 |
| CTGCCGGC | 0.266 |
| ATACCGGG | 0.39 |
| CCGGCGGA | 0.392 |
| TAGTACTA | 0.258 |
| CATAACAA | 0.255 |
| ATAACGTG | 0.286 |
| CCGCGCGG | 0.256 |
| TAATGTAA | 0.26 |

Study 4
Target: RNA binding protein fox-1 homolog 2, RRM domain, GST-SBP tag (RBFOX2, Homo sapiens, UniProt O43251-10, residues 100-194)
Method: RNA Bind-n-Seq
Molecule type: RNA
Medium: in vitro
Concentration: 365 nM
Notes: natural RNA segment, single round, ends assumed
Relative to: no-protein control
Direction: higher = stronger binding
Residues (chain): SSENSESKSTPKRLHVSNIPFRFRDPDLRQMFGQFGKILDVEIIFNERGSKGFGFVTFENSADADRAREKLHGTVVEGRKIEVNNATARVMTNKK
| Oligonucleotide | RBNS enrichment (R) |
| --- | --- |
| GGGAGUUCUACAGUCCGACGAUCAAUUGCUUAGGAGGAGGAAGGGGAAAGUAUACUUAUGUUGGUGUGUAAGCAUGCAUGGAGGCCUCGAGGCACCACAACAAGGCCAGGUUCUUAGCACAUCCUCUGUUCUCUGGAAUUCUCGGGUGCCAA | 21.9 |
| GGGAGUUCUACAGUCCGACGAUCACUUUCAGACUUCUACCUAUGCUCUUUAGUCCUGUAAAUUGGGUUGUAUUGAUGUCAACUCUGGUGCCUUAGAAGUUAGUAGUUUGGGAACCUAUCUGUAAAAUCAGAUGUGGAAUUCUCGGGUGCCAA | 0.742 |
| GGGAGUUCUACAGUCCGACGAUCUAAUCUUCACACUUAACCUUAGACACCUAUGCAGUCAUGUUGGGAGCAGGUUACAAUGUUACUUCAGCCCACAGUUUAUUUCUAUACUUGAGUUCUUAAGUACAGAAGAUUGGAAUUCUCGGGUGCCAA | 0.271 |
| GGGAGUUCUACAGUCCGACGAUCAGCAACAGUAACCCUUGCCAAGCAACGACGGGGUAGAAUUUCUAUGUUCCCAAAUUCAGCAGUAACGUCCACAUGGGACCUUUUCACGUGACUCUGUGGGGCUUCUUUCUUGGAAUUCUCGGGUGCCAA | 0.31 |
| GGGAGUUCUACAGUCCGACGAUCUUGGGUGAAAGUGGUUCUAGAACCUGCACUGAAUAGUAGUAAAGCAAUAAGGCCCGAUUCAUCCCACAGCACUGAUCAUCUCUCAAUGCCCCACCCCAAGCGAACGGUAAUGGAAUUCUCGGGUGCCAA | 0.456 |
| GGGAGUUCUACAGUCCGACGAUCUUAUAGUUUUCUUCAAUGUAUUUUUAGUUACUUGGGUCACAAAUGUUCAAUUUCAGCAUAUUUUAGGGUGAGUAAUCAAAAAUGUGAAUUUGCCUUUGAUUUCCUACCACUGGAAUUCUCGGGUGCCAA | 0.782 |
| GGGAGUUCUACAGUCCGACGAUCACCAUGACGCUAGUGCAGUGACAGCCUGUGUCACGGCCGUGUUGAGGGGUCCCAGCAGAGGCCUGUGUCGUGUAACCCAGGGACUACAAGUGUCAGUGUGGGUAUCAACCUGGAAUUCUCGGGUGCCAA | 1.65 |
| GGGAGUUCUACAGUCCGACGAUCCAGCCUUCCCCACCAAGUCUAAAAAGACCUGGCCUUUCACUUUUAGUUGGCAUUUGUUAUCCUCUUGUAUACUUGUAUUCCCUUAACUCUAACCCUGUGGAAGCAUGGCUUGGAAUUCUCGGGUGCCAA | 0.607 |
| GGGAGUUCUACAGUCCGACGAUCGCAUGUAUUUACUGUUUGACAGUAAACCCGCUCUGCCUUCUCCACGUCCAAGGCUGUGCAUUCGUCUAAUUAGCGUCGUGUAUGUUUUCCUUUUAUUUUUUCCAAUAAAAUGGAAUUCUCGGGUGCCAA | 2.08 |
| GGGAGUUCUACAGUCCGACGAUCAUUACAGGUGUGAGCCACCGUGCCUGGCCUAAAUAAAUAAUUUCGUAAGCAUAUACAAUCCACUUCCCACUAAGAAUUAGGGUCAAAGACAUUCUAUUUGAACACUUGCAUGGAAUUCUCGGGUGCCAA | 8.6 |
| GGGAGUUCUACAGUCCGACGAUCCCCCAACUUCCUCAAAGCCCAAAGCCAAGGGAAGGAUAAAUCAAGGCUCAAGGCUUCCCCAGCAAAGAUUAGGGAAAGAGACUUGACCCCAGGACUGUACUACGACUCUUUGGAAUUCUCGGGUGCCAA | 0.226 |
| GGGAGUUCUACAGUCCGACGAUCACACGGGACUACAGAUGGUGCCCUCUCAGGAGUUUUGGGGGAGAAUAGGAGUUACCCAUCAGGUUUCUCUUGGGAUUUUGUAAAUGGAGAGGACAGUUCUUAGUCCAAUAUGGAAUUCUCGGGUGCCAA | 0.495 |

Study 5
Target: Histone acetyltransferase KAT6A, both winged helices, GST fusion (KAT6A, Homo sapiens, UniProt Q92794, residues 1-181)
Method: protein binding microarray
Molecule type: double-stranded DNA, one strand shown
Medium: in vitro
Concentration: not given
Notes: 8-mer, flanks averaged, mean of 2 arrays, mostly near background
Relative to: not given
Direction: higher = stronger binding
Construct (chain): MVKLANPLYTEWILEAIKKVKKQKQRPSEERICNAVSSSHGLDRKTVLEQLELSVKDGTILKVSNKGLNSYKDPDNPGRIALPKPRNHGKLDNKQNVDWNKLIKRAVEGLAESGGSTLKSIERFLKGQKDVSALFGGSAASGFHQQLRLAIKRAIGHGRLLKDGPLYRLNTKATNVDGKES
| Oligonucleotide | E-score |
| --- | --- |
| CTTCGTGA | 0.011 |
| ATCACTCA | -0.0521 |
| ATGTTTTG | -0.0479 |
| CACAGACG | -0.0226 |
| TCAAAGAA | -0.0921 |
| CATTAACA | -0.112 |
| ACGTTGAT | -0.0815 |
| CTTAGAAC | -0.101 |
| GACCAGCA | -0.152 |
| AACGAAAT | -0.0351 |
| CTCTCTTA | -0.301 |
| GCAGGCAC | 0.0292 |
| GCTTCGTA | -0.00105 |
| GCCTGCCC | 0.0305 |
| TAGCCCTA | -0.135 |
| GCGGTAAC | 0.26 |
| CCGATTCG | 0.128 |
| ACCGATTC | 0.194 |
| AGGTAATG | -0.111 |
| CAGGCTCA | -0.159 |
| CTACGCAA | -0.0209 |
| TGATAGAA | -0.205 |
| CGCGCCCG | 0.382 |
| CCGGTCTA | 0.0915 |
| CATTTAAA | 0.0375 |

For quick reference, copied from above (study 2):
| Oligonucleotide | E-score |
| --- | --- |
| ACGCTGCT | -0.0942 |
| GGCCCTTA | -0.131 |
| AATGTTCT | 0.123 |
| GCTATCGA | -0.0727 |
| CCCCTCTC | -0.224 |
| AAACCTGA | -0.0423 |
| AGTAAAAG | 0.205 |
| CCAAAATA | 0.253 |
| AATCTTGG | -0.0643 |
| CCAGCTCA | -0.114 |
| AGCGCCGA | -0.199 |
| ACGTCAGA | -0.0194 |
| TCCACAGA | 0.008 |
